Measured values pooled from the literature.
A part holds a random share of what one study measured. Substitutions count along the parent as printed.

Sample 1
Target: ABI1, truncated, D143A, DHFR fusion (Arabidopsis thaliana)
Technique: DHFR PCA, deep sequencing
Medium: yeast
Notes: methotrexate growth selection, single substitutions
With: (+)-ABA 0.0091 µM
Baseline: wild-type fitted maximum
Reading: higher = stronger binding
Parent: PYL1, truncated, DHFR fusion (Arabidopsis thaliana); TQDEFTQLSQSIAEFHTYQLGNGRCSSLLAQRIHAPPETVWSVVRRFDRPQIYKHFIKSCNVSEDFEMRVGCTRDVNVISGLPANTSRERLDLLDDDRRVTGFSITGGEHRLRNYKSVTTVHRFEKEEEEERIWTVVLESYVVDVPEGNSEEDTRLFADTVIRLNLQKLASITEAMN
Variant	relative binding score
E64N	31%
G107S	32.4%
R132E	56.3%
V78H	55.7%
S104I	0.485%
E64K	48.5%
R113A	4.58%
I12H	-3.99%

Sample 2
Target: CCNF, cyclin fold, Cln2 fusion (human)
Technique: yeast growth competition, sequencing
Medium: yeast
Notes: strong parent motif
Baseline: not given
Reading: higher = stronger binding
Parent: RBL1 docking peptide (human); GSAKRRLFGEDPP
Variant	normalised enrichment score
GSAKRRLQGEDPP [F8Q]	0.153
GSAKRTLFGEDPP [R6T]	2.7
GSAKRRLKGEDPP [F8K]	1.44
GSAKRRLFGFDPP [E10F]	7.47
GSAKRRLCGEDPP [F8C]	0.228
GSAKRRLFGADPP [E10A]	6.44
GFAKRRLFGEDPP [S2F]	6.84

Sample 3
Target: Histone acetyltransferase KAT6A, both winged helices, GST fusion (KAT6A, Homo sapiens, UniProt Q92794, residues 1-181)
Technique: protein binding microarray
Molecule type: double-stranded DNA, one strand shown
Medium: in vitro
Tested at: not given
Notes: 8-mer, flanks averaged, mean of 2 arrays, mostly near background
Baseline: not given
Reading: higher = stronger binding
Construct (chain): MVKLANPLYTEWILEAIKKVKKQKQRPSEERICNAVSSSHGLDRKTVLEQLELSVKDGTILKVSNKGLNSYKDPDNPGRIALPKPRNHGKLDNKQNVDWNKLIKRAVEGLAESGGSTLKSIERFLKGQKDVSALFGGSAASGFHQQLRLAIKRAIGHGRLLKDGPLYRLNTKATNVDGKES
Strand	E-score
TACTCGCA	0.0941
ATACCACG	0.0288
GGCACGCA	0.119
AGCAGTCA	-0.0836
GGAACCTA	0.0286
CTAGGTAA	-0.125
GATCCGGC	0.0783
ACAGAACG	-0.0429
CTGCATTA	-0.0366
AATTCGTC	-0.014
GCTGTTAA	0.197
CAATGTCC	-0.0655

Sample 4
Substance: PhoQ, residues 284 288 289 292 302 303 SNSSNI
Technique: Sort-seq
Item: YFP reporter
Medium: E. coli
Notes: PhoQ-PhoP variant library
With: 10 µM Mg2+
Baseline: high Mg2+ state
Reading: higher = stronger signaling
target	fold induction
PhoP, residues 12 14 15 18 19 TQAML (Escherichia coli, UniProt P23836)	10.3
PhoP, residues 12 14 15 18 19 NQCAL (Escherichia coli, UniProt P23836)	2.9
PhoP, residues 12 14 15 18 19 LHTVL (Escherichia coli, UniProt P23836)	11.8

Excerpt of the above (sample 3):
Strand	E-score
TACTCGCA	0.0941
ATACCACG	0.0288
GGCACGCA	0.119
AGCAGTCA	-0.0836
